Measured values from different studies.
A part holds a random share of what one study measured. Changes are numbered by the printed parent chain.

Series 1
Target: Histone acetyltransferase KAT6A, winged helix 1, GST fusion (KAT6A, Homo sapiens, UniProt Q92794, residues 1-85)
Method: protein binding microarray
Molecule type: double-stranded DNA, one strand shown
Medium: in vitro
Concentration: not given
Setting: 8-mer, flanks averaged, mean of 2 arrays, mostly near background
Reference: not given
Direction: higher = stronger binding
Target sequence (chain): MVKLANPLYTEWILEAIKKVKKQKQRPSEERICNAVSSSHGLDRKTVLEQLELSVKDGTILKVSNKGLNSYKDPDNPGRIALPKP
`GGTGAATA` has an E-score of -0.096.
The E-score of `AGCTTCGA` is reported as -0.169.
The E-score of `ACTAGAAG` is reported as -0.109.
The E-score of `CGCATCAA` is reported as 0.168.
`GATTGAGC` gave an E-score of 0.0103.
For `ACAGTAGA`, the E-score was -0.103.
The E-score of `CATGCTCC` is reported as -0.107.
`AAGGAGCA` has an E-score of -0.26.
The E-score of `GGGAAACC` is reported as 0.11.
With `AAGTTGTA` the E-score was -0.144.
With `GATGGTGA` the E-score was -0.229.
The E-score of `CAAACTCC` is reported as 0.0242.
`CACTGGGA` gave an E-score of -0.222.
With `TTCGAAAA` the E-score was -0.0716.
`CATTAGTA` has an E-score of -0.147.

Series 2
Target: PABPC1L2, full length, GST fusion (mouse, UniProt A0ABA7IW68)
Method: RNAcompete
Molecule type: RNA
Medium: in vitro
Concentration: 20 nM
Setting: 7-mer, probes averaged, single round
Reference: mean of 7-mers
Direction: higher = stronger binding
Target sequence (chain): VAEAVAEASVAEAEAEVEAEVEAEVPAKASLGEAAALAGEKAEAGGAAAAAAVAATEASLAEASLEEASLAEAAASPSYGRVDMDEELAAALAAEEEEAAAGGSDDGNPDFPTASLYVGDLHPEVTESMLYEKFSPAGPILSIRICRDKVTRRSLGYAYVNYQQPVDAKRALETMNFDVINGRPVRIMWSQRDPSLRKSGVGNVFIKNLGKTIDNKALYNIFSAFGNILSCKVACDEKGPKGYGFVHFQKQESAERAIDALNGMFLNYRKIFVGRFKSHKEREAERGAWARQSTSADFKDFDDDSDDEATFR
`UUAGACU` gave a 7-mer Z-score of -0.213.
The 7-mer Z-score of `UCUGGUA` is reported as -0.0935.
`CAGGACA` gave a 7-mer Z-score of 0.258.
With `AAUACGU` the 7-mer Z-score was -0.0373.
`CGUCGGC` gave a 7-mer Z-score of -0.376.
The 7-mer Z-score of `UUAUCGG` is reported as 0.155.
The 7-mer Z-score of `UCUAGUU` is reported as -0.371.
`GGGCACG` has a 7-mer Z-score of 0.137.
For `CUAGAAU`, the 7-mer Z-score was -0.249.
For `ACCACUU`, the 7-mer Z-score was -0.171.
For `GACAGCC`, the 7-mer Z-score was -0.151.
`UUUAAUC` gave a 7-mer Z-score of -0.0264.
`AGGGUAA` has a 7-mer Z-score of 0.242.
`GACCCGC` gave a 7-mer Z-score of -0.394.
`UGAGUAC` has a 7-mer Z-score of -0.141.
With `GUGACCC` the 7-mer Z-score was -0.133.

Series 3
Target: Sal-like protein 4, full length isoform A (SALL4, Homo sapiens, UniProt Q9UJQ4, residues 1-1053)
UniProt Q9UJQ4, sequence (whole entry, looked up): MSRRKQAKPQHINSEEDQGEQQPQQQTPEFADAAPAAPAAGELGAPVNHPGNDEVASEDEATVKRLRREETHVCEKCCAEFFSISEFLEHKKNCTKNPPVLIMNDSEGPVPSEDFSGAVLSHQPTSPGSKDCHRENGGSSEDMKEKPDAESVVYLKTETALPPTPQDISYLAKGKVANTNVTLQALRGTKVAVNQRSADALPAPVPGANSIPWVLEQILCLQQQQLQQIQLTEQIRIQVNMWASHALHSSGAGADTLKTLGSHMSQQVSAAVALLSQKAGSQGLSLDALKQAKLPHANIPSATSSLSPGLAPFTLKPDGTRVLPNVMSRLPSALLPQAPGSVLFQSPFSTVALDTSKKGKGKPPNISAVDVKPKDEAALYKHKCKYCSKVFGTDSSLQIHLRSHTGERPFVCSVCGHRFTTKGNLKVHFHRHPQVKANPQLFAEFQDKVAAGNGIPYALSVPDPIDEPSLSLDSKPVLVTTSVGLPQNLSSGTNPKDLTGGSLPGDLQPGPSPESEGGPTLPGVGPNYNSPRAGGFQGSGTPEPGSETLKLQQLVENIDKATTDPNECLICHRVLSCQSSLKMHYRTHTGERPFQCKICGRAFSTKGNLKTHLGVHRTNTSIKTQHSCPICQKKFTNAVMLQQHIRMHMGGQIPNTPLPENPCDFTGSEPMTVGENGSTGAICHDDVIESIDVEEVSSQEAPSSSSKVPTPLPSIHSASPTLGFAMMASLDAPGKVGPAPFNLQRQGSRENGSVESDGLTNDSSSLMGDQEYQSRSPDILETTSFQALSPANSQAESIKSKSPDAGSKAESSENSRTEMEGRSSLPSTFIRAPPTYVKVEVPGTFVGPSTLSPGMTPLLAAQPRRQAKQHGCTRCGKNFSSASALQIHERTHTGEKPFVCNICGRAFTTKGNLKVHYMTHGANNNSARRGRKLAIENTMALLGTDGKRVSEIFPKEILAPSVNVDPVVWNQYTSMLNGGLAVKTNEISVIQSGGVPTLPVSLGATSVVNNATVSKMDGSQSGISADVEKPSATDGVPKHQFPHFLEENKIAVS
Method: universal PBM
Molecule type: double-stranded DNA, one strand shown
Medium: in vitro
Concentration: 600 nM
Setting: 8-mer, flanks averaged, mean of replicates
Direction: higher = stronger binding
For `GGGCTAAA`, the E-score was -0.13.
For `CGCACTTA`, the E-score was 0.023.
`AGGTTATG` gave an E-score of 0.241.
For `CGGAAACC`, the E-score was -0.363.
`CGCTCCTA` gave an E-score of -0.0311.
The E-score of `AGGTCATA` is reported as 0.182.
`CTTTAACC` gave an E-score of 0.0877.
`AGCATTTG` gave an E-score of 0.0642.
For `CGCGTTCC`, the E-score was -0.31.
With `GACATCTC` the E-score was -0.0761.
The E-score of `AAGATCAA` is reported as 0.141.
For `GCTTCTGA`, the E-score was 0.00639.
The E-score of `GACACTGC` is reported as -0.225.
`ACCTTTAG` has an E-score of 0.0822.
`CGCGGACC` has an E-score of -0.369.
With `ACTAACTA` the E-score was 0.0672.
The E-score of `CTAGATAA` is reported as 0.239.
With `AAGGAGAC` the E-score was -0.0104.
For `TATCGGGA`, the E-score was -0.00991.
`GAGCTATA` gave an E-score of 0.123.
`CCCGCTTA` has an E-score of -0.156.
For `CGGTTATC`, the E-score was -0.0229.
For `AACGAAAT`, the E-score was 0.221.
With `CTTTAAGC` the E-score was 0.0326.
`ACAAGCTG` has an E-score of -0.128.

Series 4
Target: Myc proto-oncogene protein, bHLH-zipper, MAX partner unstated (MYC, Homo sapiens, UniProt P01106, residues 368-449)
UniProt P01106, sequence (368-449, looked up): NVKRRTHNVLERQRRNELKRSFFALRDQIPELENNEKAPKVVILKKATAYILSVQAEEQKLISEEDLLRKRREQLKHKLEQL
Method: protein-binding microarray
Molecule type: double-stranded DNA, one strand shown
Medium: in vitro
Concentration: not given
Setting: k-mer, scored over probes, only values ≥0.25
Direction: higher = stronger binding
`GCAGGCGC` has an E-score of 0.272.
`CAATGTGC` has an E-score of 0.337.
`CACGTGGA` has an E-score of 0.496.
The E-score of `AGCCCCAC` is reported as 0.326.
`ACGCGGGG` has an E-score of 0.381.
`CGGGGAAC` has an E-score of 0.282.
With `CGTGGCCA` the E-score was 0.413.
`CAGCACGC` has an E-score of 0.394.
With `AGCACGTC` the E-score was 0.271.
The E-score of `GCCCACCC` is reported as 0.372.
The E-score of `CCGTGGCA` is reported as 0.285.
The E-score of `GTCCACGA` is reported as 0.344.
`ACCACGAA` gave an E-score of 0.267.

Series 5
Target: RING finger protein unkempt homolog, zinc fingers 1-6, GST-SBP tag (UNK, Homo sapiens, UniProt Q9C0B0, residues 30-357)
UniProt Q9C0B0, sequence (30-357, looked up): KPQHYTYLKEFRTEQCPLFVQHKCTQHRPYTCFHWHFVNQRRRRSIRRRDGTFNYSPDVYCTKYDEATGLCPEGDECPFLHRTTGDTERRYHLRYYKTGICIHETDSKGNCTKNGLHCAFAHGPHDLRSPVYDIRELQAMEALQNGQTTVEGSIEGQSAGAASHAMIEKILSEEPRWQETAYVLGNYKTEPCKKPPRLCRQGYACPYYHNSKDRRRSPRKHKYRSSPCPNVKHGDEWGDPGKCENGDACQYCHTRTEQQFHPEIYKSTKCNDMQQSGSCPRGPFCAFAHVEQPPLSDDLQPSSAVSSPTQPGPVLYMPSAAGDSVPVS
Method: RNA Bind-n-Seq
Molecule type: RNA
Medium: in vitro
Concentration: not given
Setting: RNA with constant flanks, human and mouse sites, ends assumed
Reference: input RNA pool
Direction: higher = stronger binding
For `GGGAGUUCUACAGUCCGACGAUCUCUGUCAAGAUCAAGAAAAAUAAGGACAACGUGAAGUUUAAAGUUCGAUGCAGCAGAUACCUUUACACCCUGGUCAUCACUGACAAAGAGAAGGCAGAGAAACUGAAGCAGUCCCUGCCCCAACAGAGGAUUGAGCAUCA`, the bound/input enrichment was 0.112 ratio.
`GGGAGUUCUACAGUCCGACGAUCUUUAACUCUCUUCUCCUCAGACACAGUGGCACUGCUUAUCUCCAAAUGGUGUGAUCGUCUCCUCAGUGAGCGGCGGCUCCCACUGCGCUGUGGGUAGUGUGUGACUGUGGCUGUACUGUACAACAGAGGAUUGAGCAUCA` gave a bound/input enrichment of 0.175 ratio.
With `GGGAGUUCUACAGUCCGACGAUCAAAGUUAUCUCUCUUUAGGCACGAAGAGCAAUUCAGAAAAAUAUGACUUUUAUUGAUGAAAAUAGAGUUAUGCUUAAAUAUCUCUUCCCUUUGAAUGAAAUUGUGGUAGAUUUUUAUGACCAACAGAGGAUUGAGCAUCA` the bound/input enrichment was 1.44 ratio.
With `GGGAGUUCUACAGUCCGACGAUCGUCAUGGUAUUUUUGGUCUGGAUUAAGCUCUUCAAAUUCAUCAAUUUUAAUAGGACCAUGAGCCAGCUCUCCACAACCAUGUCUCGAUGUGCCAAAGACCUCUUCGGCUUCACCAUAAUGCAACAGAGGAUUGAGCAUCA` the bound/input enrichment was 1.08 ratio.
`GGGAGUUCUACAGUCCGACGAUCUUACCUUUAUAAUGUAGCAGUGAAGUAAAUCAUUUUAGAACUUAAUAUCCAACUGAUCAUAGUACAUAUUGUAAAUAAAAUGUAUUUUGAUGACAGCUCAGUUGAAUAUGGAUAAUAUGUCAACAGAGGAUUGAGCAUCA` has a bound/input enrichment of 3.27 ratio.
With `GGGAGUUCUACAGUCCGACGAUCAACAAUCUUCUGGAUGGUGGUAAGGUCUUUUUUAGCAAACACAGUAAAGAGCUUAUUUCAUUUCUGAUGCUUUCAAGGGCAUAUUCCAAAGUAUCACAGAUGUCAAAUAGAAUAUGCUAUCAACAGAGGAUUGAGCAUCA` the bound/input enrichment was 0.543 ratio.

Series 6
Target: CCNA2, cyclin fold, Cln2 fusion (human)
Method: yeast growth competition, sequencing
Medium: yeast
Setting: strong parent motif
Reference: not given
Direction: higher = stronger binding
Starting sequence: CDC6 docking peptide (human); TLKGRRLVFDNQL
Under “normalised enrichment score”, `TLKSRRLVFDNQL [G4S]` is recorded as 0.525.
For `TLKGRRLVFFNQL [D10F]`, “normalised enrichment score” read 2.32.
For `TLKGRRLVFDNKL [Q12K]`, “normalised enrichment score” read 2.28.
`TLKRRRLVFDNQL [G4R]` — result for “normalised enrichment score”: 2.96.
For `TLKGRRLVFDNFL [Q12F]`, “normalised enrichment score” read 3.02.
`TLKGRRLVFSNQL [D10S]`: “normalised enrichment score” 2.68.
Under “normalised enrichment score”, `TLKGRRLVPDNQL [F9P]` is recorded as 0.867.
`TLKGRRLVFMNQL [D10M]` — result for “normalised enrichment score”: 1.84.
Under “normalised enrichment score”, `TLKGNRLVFDNQL [R5N]` is recorded as 0.55.
For `TLKGRRLVFDNWL [Q12W]`, “normalised enrichment score” read 2.8.
`TLKGRRLVFDNQC [L13C]` — result for “normalised enrichment score”: 2.97.
`TLKGRRLVFDGQL [N11G]` — result for “normalised enrichment score”: 3.46.
`TLKGRRLNFDNQL [V8N]` — result for “normalised enrichment score”: 4.72.
`TLKGRRLVFDMQL [N11M]`: “normalised enrichment score” 2.25.
`TLKGIRLVFDNQL [R5I]` — result for “normalised enrichment score”: 0.483.

Series 7
Target: Interferon regulatory factor 3, full length, phosphomimetic (IRF3, Homo sapiens, UniProt Q14653, residues 1-427, S386D/S396D/S398D/S402D/T404D/S405D)
UniProt Q14653, sequence (whole entry, unmodified, looked up): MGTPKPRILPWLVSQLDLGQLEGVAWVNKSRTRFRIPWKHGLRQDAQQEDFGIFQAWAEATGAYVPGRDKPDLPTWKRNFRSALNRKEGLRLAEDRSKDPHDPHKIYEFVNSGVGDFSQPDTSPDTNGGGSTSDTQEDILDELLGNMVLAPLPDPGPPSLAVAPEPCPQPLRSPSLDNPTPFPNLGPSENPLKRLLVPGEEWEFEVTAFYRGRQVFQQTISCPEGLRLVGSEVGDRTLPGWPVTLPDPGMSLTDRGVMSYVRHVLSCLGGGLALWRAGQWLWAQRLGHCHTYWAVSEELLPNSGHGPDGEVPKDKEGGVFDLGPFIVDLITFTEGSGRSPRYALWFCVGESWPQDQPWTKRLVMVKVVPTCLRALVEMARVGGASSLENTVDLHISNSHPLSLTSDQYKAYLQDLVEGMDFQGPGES
Method: protein-binding microarray
Molecule type: double-stranded DNA, one strand shown
Medium: in vitro
Concentration: 2540 nM top
Setting: 60-bp whole probe
Added: salmon DNA 0.4 mg/ml
Reference: random background probes
Direction: higher = stronger binding
All sequences stand within: GCCTAGCAC … GTCTTGATTCGCTTGACGCTGCTG
`CATCATTGCTTTCTCTTTCAGTGCTAG` — result for “fitted relative affinity”: 2.31 z-score.
Under “fitted relative affinity”, `TCAACTTGTCTTTTCACACTGTGCTAG` is recorded as 1.21 z-score.
Under “fitted relative affinity”, `GACGCTATCGGTCTCGGGACGTGCTAG` is recorded as 1.31 z-score.
Under “fitted relative affinity”, `GACGGACTGCTACTACTGACGTGCTAG` is recorded as -0.566 z-score.
`GACGGTTTCGACACTAGGGACGTGCTA`: “fitted relative affinity” 3.22 z-score.
`ATGACTCCCTCTCTGGCCAAGTGCTAG`: “fitted relative affinity” 0.953 z-score.
Under “fitted relative affinity”, `GACGGTATCGGGTTTCGGGGCGTGCTA` is recorded as 2.72 z-score.
`GACGGTTTCGGGACAGGGGACGTGCTA`: “fitted relative affinity” 4.35 z-score.
Under “fitted relative affinity”, `GACGATCTCAGTCTGGAGACGTGCTAG` is recorded as 0.378 z-score.
For `TCAGCTTTTTTTCCGAGACTGTGCTAG`, “fitted relative affinity” read 0.681 z-score.
For `AAGCTTCTTTTTTATTCTAAAGTGCTA`, “fitted relative affinity” read 1.31 z-score.
`TCATGTCTTAGATTCCTACTGTGCTAG`: “fitted relative affinity” 1.03 z-score.
`GACGGACTGATTCTCCTGACGTGCTAG`: “fitted relative affinity” 0.284 z-score.

For quick reference, copied from above (series 2):
For `GACAGCC`, the 7-mer Z-score was -0.151.
`UUUAAUC` gave a 7-mer Z-score of -0.0264.
`AGGGUAA` has a 7-mer Z-score of 0.242.
`GACCCGC` gave a 7-mer Z-score of -0.394.
`UGAGUAC` has a 7-mer Z-score of -0.141.
With `GUGACCC` the 7-mer Z-score was -0.133.
